# Assay results pooled from the literature.
# Every numbered part comes from another study and shows a few of its results, in no order.

# Series 1
# Target: Interferon regulatory factor 5, full length, phosphomimetic (IRF5, Homo sapiens, UniProt Q13568-2, residues 1-514, K96S/S451D/S453D/S456D/S462D)
# Method: protein-binding microarray
# Molecule type: double-stranded DNA, one strand shown
# Medium: in vitro
# Concentration: 250 nM
# Notes: 60-bp whole probe
# With: salmon DNA 0.4 mg/ml
# Relative to: random background probes
# Reading: higher = stronger binding
# Shared flanks, not repeated: GCCTAGCAC … GTCTTGATTCGCTTGACGCTGCTG
Oligonucleotide,log fluorescence [z-score]
GACGGAGTGGACACTGGGGACGTGCTA,-0.515
AGGAATTTCCCACTTTCACTGTGCTAG,4.28
CTGGAGGTTGGGCAAGGCCCGTGCTAG,-0.76
TTAGAACTAAGTATCGATTAGTGCTAG,6.51
TTAGGTATCCTTCTGCTTTAGTGCTAG,0.394
GACGAGTTCGGGTTTCGAGACGTGCTA,1.43
GACGATTTCAGTCTCGCGACGTGCTAG,0.985
GACGGTTGCCTTTCCCTGACGTGCTAG,0.139
ATTGCTTTCTCTTTCACTGCGTGCTAG,6.81
TCACTTCTGGGCTGTTTAACTGTGCTA,0.3

# Series 2
# Target: Sal-like protein 4, full length isoform A (SALL4, Homo sapiens, UniProt Q9UJQ4, residues 1-1053)
# Sequence of UniProt Q9UJQ4 (whole entry, looked up): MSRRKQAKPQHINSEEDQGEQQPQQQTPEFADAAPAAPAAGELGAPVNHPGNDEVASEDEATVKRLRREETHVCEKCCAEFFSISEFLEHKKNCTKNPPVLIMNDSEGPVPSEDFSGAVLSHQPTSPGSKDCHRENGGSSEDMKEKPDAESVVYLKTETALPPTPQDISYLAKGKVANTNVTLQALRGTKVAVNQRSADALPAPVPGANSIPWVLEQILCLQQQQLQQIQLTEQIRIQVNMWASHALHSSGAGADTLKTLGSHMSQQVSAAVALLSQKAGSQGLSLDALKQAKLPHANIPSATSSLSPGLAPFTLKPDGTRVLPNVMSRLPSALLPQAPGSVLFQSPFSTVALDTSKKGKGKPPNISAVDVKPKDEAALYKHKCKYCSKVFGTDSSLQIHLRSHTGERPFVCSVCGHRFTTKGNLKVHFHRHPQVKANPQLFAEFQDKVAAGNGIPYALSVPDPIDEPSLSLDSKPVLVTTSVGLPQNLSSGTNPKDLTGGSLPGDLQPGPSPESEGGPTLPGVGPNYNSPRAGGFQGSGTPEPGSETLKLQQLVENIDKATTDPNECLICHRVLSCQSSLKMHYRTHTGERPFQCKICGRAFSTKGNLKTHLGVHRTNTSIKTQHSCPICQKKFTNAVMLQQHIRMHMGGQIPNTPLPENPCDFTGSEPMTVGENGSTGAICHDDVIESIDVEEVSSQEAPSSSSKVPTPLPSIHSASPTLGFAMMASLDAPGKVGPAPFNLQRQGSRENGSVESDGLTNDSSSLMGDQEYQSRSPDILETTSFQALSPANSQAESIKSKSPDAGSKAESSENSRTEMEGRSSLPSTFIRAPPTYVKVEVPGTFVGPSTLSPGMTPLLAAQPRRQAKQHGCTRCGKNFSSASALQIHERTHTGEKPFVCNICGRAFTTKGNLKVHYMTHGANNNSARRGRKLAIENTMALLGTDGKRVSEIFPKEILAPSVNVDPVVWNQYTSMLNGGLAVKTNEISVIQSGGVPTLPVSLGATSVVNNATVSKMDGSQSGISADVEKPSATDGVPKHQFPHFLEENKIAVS
# Method: universal PBM
# Molecule type: double-stranded DNA, one strand shown
# Medium: in vitro
# Concentration: 600 nM
# Notes: 8-mer, flanks averaged, mean of replicates
# Reading: higher = stronger binding
Oligonucleotide,E-score
ACAGCCTG,-0.0729
AGTTCTCC,-0.247
CTGAAAGC,-0.0803
CAATGGGG,-0.191
CTCGTGTC,-0.168
AGACTGAA,0.037
GCCCCACA,-0.285
ATACTTAA,0.331
GAGCCGGC,-0.269
CACTGCTA,0.0588
AGTCGCGA,-0.0676
GAGTGCAC,-0.142
CATAGTTC,0.0731

# Series 3
# Target: RING finger protein unkempt homolog, zinc fingers 1-6, GST-SBP tag (UNK, Homo sapiens, UniProt Q9C0B0, residues 30-357)
# Method: RNA Bind-n-Seq
# Molecule type: RNA
# Medium: in vitro
# Concentration: not given
# Notes: RNA with constant flanks, human-mouse chimeric sites, ends assumed
# Relative to: input RNA pool
# Reading: higher = stronger binding
# Residues (chain): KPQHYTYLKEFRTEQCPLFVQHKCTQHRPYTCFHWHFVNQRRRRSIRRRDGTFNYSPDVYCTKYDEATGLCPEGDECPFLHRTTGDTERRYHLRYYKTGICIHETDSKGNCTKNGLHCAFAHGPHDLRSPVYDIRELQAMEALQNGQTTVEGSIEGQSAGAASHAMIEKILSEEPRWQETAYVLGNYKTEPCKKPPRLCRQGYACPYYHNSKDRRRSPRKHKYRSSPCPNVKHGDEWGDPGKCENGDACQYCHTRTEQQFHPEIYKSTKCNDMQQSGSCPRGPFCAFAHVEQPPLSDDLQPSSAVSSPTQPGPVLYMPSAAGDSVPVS
Oligonucleotide,bound/input enrichment
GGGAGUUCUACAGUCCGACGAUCCUGGCACUCUAUCAGAUAUAUUAAUUUUUUAAUGUAGAUGUAAUUUUAAAAAUGAAUGGCUACUUUACACGUUUAACUAGGGUUUUACUAUAUAUGUGUGUGUAUAUAUAUAUAUAUAUACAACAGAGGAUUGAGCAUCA,26.2 ratio
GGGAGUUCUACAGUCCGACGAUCAGGAGGAGAUUAAAGGGUGAGAGUGGGGUGGAAGACUGUGUCAUGGCUCUGGAGACACUGUUCAGUGUUCUGCUUUCUCUGUGCAGACUGAUGGCCCCUUACACGCCCUUUCUGACUGAGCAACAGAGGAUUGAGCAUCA,0.0657 ratio
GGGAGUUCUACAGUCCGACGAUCACCAUUUUCGCGGUUCAGGCUUUGUGUGUAGUUCACUCUAUGUAUUAAAUUAUUAUUGCCCUUAGUUUAUAAUAAGGAUAAUUGCAUUUAAAGAGGUUACUGAAUGUUACUCUGAAACUUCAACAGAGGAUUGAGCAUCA,1.01 ratio
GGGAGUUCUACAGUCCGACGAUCAGAGAAAUGAGAAAGAAUCUCACACAAGAAGAGAUGCAAAGAAUGUCUACUAGAGUCCUUUUGGCGACUCUUUCCAUCCCUAUUACUCCUGAGCGAACUGAUAUUGCUCGACUUUUGGAUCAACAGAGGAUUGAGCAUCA,0.101 ratio
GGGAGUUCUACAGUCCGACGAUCGAAUCCUCCCGUGCAAAAUUUUGCAACACCAAGCUCACAGCAGCAGCAUCUUAGUCACAGUAGGGUAGUUUUGGGGCUCUGUGGCCAGGGUUUUAUUCACAUGCAGGUUUGGAAAAUGUACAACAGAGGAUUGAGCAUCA,2.25 ratio
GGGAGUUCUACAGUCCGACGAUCCGCUUGGAUGAGGCGGGUGUCACAGAUGAAGUGCUAGAUUCUGCCAUGCAAGCCUUCCUUCUGGAGGUUAUCGUUAAGCAUGGGGAGCCGGCACCUUAUUUAUGUAACAAAGAUCCGUUUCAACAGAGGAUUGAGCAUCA,0.0746 ratio

# Mixed results
Molecule,target,test,test system,conditions,how to read,measurement,value
"PhoQ, residues 284 288 289 292 302 303 SSCCRF","PhoP, residues 12 14 15 18 19 VGHWL (Escherichia coli, UniProt P23836)","Sort-seq, item: YFP reporter",E. coli,"PhoQ-PhoP variant library, with: 10 µM Mg2+","relative to: high Mg2+ state, higher = stronger signaling",fold induction,3.6
